Measured values of several laboratories.
Each numbered part is a random draw from the data of one study; scales do not carry over between parts. Substitutions count along the parent as printed.

Series 1 — method: RNA Bind-n-Seq; molecule type: RNA; medium: in vitro; concentration: 365 nM; baseline: no-protein control; reading: higher = stronger binding
Target: RNA binding protein fox-1 homolog 2, RRM domain, GST-SBP tag (RBFOX2, Homo sapiens, UniProt O43251-10, residues 100-194)
Notes: natural RNA segment, single round, ends assumed
Target sequence (chain): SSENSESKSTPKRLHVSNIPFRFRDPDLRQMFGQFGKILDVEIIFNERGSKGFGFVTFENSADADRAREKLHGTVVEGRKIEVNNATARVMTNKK
For `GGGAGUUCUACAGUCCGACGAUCCCUUCUUCUGAUUCCUUUAAGCUCUCCCACCCUUGUGGACUUGGUAGUUAAGAGGUUCCACAGAGUAUUUUCCUUUCUGCUCCCAGUACCUCUCAAACGAUCUUUAGAUAUGGAAUUCUCGGGUGCCAA`, “RBNS enrichment (R)” read 0.404.
`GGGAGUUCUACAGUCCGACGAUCCAGAUGAAACCUGUAUAUUAGGUGUUCAUGUGGUUAUUUUGUAUUUAAAGAUCAAAUUAUUUGACUAUUGCUAGACAUUUCUAUACUCUGUUGUAACACUGAGGUAUCUCUGGAAUUCUCGGGUGCCAA` — result for “RBNS enrichment (R)”: 0.871.
For `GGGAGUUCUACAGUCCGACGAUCGGCCUUCUUACUAACCUUGGACCGUGAUUGAGCCCAAGAAACCAGGGACUUACGCAUUUGGCCAAUGUCAAAAGAACAGAACUUUGCCCACUGCACACUUGCUGUGUACAUGGAAUUCUCGGGUGCCAA`, “RBNS enrichment (R)” read 0.505.
Under “RBNS enrichment (R)”, `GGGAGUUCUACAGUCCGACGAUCGCCAGUGGUUCCGGCUGAGCUCUCCUGGCUGGUCCCCCAGGACCACCAGCACUGCCGUGGGUCUCCUCACAUGGUCAAACGGAACACGGGGGGUUAGGCCUGUGUGCCCCUGGAAUUCUCGGGUGCCAA` is recorded as 0.196.
For `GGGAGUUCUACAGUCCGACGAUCGGAUUGACUCAAGAGACAGUAUUAGUAAAUUUAUUGUGUAUGGAUCAAAAGUGAAUAAUGUAUGAAUGAGAGCUGUAAGAAGGAUUUUUAUUUUGUUAUAAUUUAGUUACUGGAAUUCUCGGGUGCCAA`, “RBNS enrichment (R)” read 1.23.
`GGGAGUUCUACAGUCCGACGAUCUGCUAUUAUUGUAUUUCAGUGGCAAUGGACACAUUAGCCUUUUACAAGAGGACUAGAGUUCAUCAAGCCUUGAAAGGCAGGCUUCACAGUGCCGAGUUGGCGGGAAAAGCUGGAAUUCUCGGGUGCCAA`: “RBNS enrichment (R)” 0.294.
Under “RBNS enrichment (R)”, `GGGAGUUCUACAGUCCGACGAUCAAUUAAAGUUAUUAUAACAGUAAUUCUUUGAAGUCGAUCUGUCCUUCAGUUUUCUUUUCUACAAUAAAGUGUUCGUUAAAUUUGGUUAAAAACAAAACAACAAACUUGAUUGGAAUUCUCGGGUGCCAA` is recorded as 0.58.
For `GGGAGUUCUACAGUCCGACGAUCAAGUUGCAGCCUUUUUUAUAUUGCCUGCCAAAAUUUGAAGUAUUAGAAGAAAGUGUGCCAUGAGAGAAAAACUUAAGGAGUUUUGAAAAGUAAUGCAAAUAACAAAACUGUGGAAUUCUCGGGUGCCAA`, “RBNS enrichment (R)” read 0.535.
For `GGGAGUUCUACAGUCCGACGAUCUCAGACAUGCAUCUGUGAUGUUCAUAGCCUUGUUUCAGUUAUAAUAGUUGUCUUGUUUUUUUCUUAAUUGAUUUUGUUAAUAAUACCUUAACACAGGGUAGGAAGAAGUGUGGAAUUCUCGGGUGCCAA`, “RBNS enrichment (R)” read 6.77.
`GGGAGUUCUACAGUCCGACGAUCAUAUAUAGAGAGAAUUGGUCUCGUUUAAACACGCCGAACCUCACCAUAUGGAGCCAGACAUUGGGACGCACGCAUGUGAUUGUGUGUGCACGCAUGUGUGUGUGUGCACGUGGAAUUCUCGGGUGCCAA` — result for “RBNS enrichment (R)”: 1.92.
`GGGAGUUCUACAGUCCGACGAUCCAAUUUCUAGAGUAGUUUUGAAUGGGUUGAUUUCCCCCACUCCCACAAACUCUGAAGCCAGUGUCUAGCUUACUAAAAAAAGAGUUGUAUAUAAUAUUUAAGAUGCUGAGUGGAAUUCUCGGGUGCCAA`: “RBNS enrichment (R)” 0.587.
Under “RBNS enrichment (R)”, `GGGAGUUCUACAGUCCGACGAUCACCUUCCUCACUUUCUCUUGUCCCGGCUGCCCCUGGGGGCCAGAGAGACCCUUGCCUUCCUUCUGCCCAUCUUCUGAGUUGUAAAGGAACAGCCCUGCGCAGUGGGGCAGUGGAAUUCUCGGGUGCCAA` is recorded as 1.03.

Series 2 — method: aptamer microarray, sandwich; molecule type: DNA with 2'F-ANA; medium: in vitro; concentration: 200 nM; with: Cy3 exosite-II aptamer, 400 nM; reading: higher = stronger binding; oligonucleotide: GGTTGGTGTGGTTGG
Target: Prothrombin, mature alpha-thrombin (F2, Homo sapiens, UniProt P00734)
Notes: whole 15-mer aptamer, many near background
Under “mean fluorescence intensity”, `2'F-ANA at 2 3 6 8 9 11 12 13 14` is recorded as 362 a.u.
`2'F-ANA at 1 2 6 8 11 13 14 15` — result for “mean fluorescence intensity”: 93.1 a.u.
`2'F-ANA at 1 7 9 12`: “mean fluorescence intensity” 390 a.u.
`2'F-ANA at 1 4 7 9 14 15` — result for “mean fluorescence intensity”: 50.4 a.u.
`2'F-ANA at 1 3 4 6 9 10 11 13 15` — result for “mean fluorescence intensity”: 63.7 a.u.
`2'F-ANA at 3 6 7 9 11 13 14` — result for “mean fluorescence intensity”: 473 a.u.
For `2'F-ANA at 3 4 7 9 12 13 14`, “mean fluorescence intensity” read 290 a.u.
Under “mean fluorescence intensity”, `2'F-ANA at 1 2 4 6 9 14 15` is recorded as 47.5 a.u.
For `2'F-ANA at 3 4 7 8 13`, “mean fluorescence intensity” read 617 a.u.
`2'F-ANA at 2 3 7 8 9 14 15` — result for “mean fluorescence intensity”: 538 a.u.
Under “mean fluorescence intensity”, `2'F-ANA at 1 3 5 7 8 10 11 12 14` is recorded as 101 a.u.
Under “mean fluorescence intensity”, `2'F-ANA at 1 2 3 7 10 11 13 14 15` is recorded as 53 a.u.
For `2'F-ANA at 1 7 9 10 11 12 13 14`, “mean fluorescence intensity” read 49 a.u.
For `2'F-ANA at 2 4 6 7 9 12 14`, “mean fluorescence intensity” read 103 a.u.
Under “mean fluorescence intensity”, `2'F-ANA at 1 4 12 13 15` is recorded as 231 a.u.
`2'F-ANA at 1 5 8 9 11 13 14 15`: “mean fluorescence intensity” 47.7 a.u.

Series 3 — method: protein binding microarray; molecule type: double-stranded DNA, one strand shown; medium: in vitro; concentration: not given; baseline: not given; reading: higher = stronger binding
Target: Histone acetyltransferase KAT6A, both winged helices, GST fusion (KAT6A, Homo sapiens, UniProt Q92794, residues 1-181)
Notes: 8-mer, flanks averaged, mean of 2 arrays, mostly near background
Construct (chain): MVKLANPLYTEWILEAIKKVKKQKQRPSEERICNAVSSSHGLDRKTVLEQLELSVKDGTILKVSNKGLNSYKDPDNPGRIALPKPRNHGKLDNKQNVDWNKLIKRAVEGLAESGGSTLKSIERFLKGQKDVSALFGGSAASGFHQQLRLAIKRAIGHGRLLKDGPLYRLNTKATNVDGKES
The E-score of `AAGATCTT` is reported as -0.0652.
With `CTGCATCC` the E-score was -0.13.
With `AATGCAGT` the E-score was -0.0911.
With `ACCATGGC` the E-score was -0.0829.
The E-score of `GTCCTGCA` is reported as -0.219.
`ACGTGTCC` gave an E-score of 0.0479.
`GACCTCCC` has an E-score of -0.0581.
The E-score of `CTGAGATA` is reported as -0.166.
`ATAAAATA` gave an E-score of 0.0047.
`CCCAGGTA` has an E-score of -0.218.
The E-score of `TAAGAGGA` is reported as -0.317.
`ATGGTCCC` has an E-score of -0.116.
`CACGCCCC` has an E-score of 0.0788.
`GGAATTAC` has an E-score of 0.0689.
For `ACTTAGAA`, the E-score was -0.0944.
`AACTCGGC` gave an E-score of 0.115.
For `AGTGGGTC`, the E-score was -0.0287.
`CAAAGCCG` has an E-score of 0.204.
`CCGGACAG` gave an E-score of 0.087.
With `CACATAAA` the E-score was -0.0256.
`AAGCGGTA` gave an E-score of 0.14.
The E-score of `AAAACTAT` is reported as -0.0343.

Series 4 — method: DHFR PCA, deep sequencing; medium: yeast; with: (+)-ABA 58 µM; baseline: wild-type fitted maximum; reading: higher = stronger binding
Target: ABI1, truncated, D143A, DHFR fusion (Arabidopsis thaliana)
Notes: methotrexate growth selection, single substitutions
Parent: PYL1, truncated, DHFR fusion (Arabidopsis thaliana); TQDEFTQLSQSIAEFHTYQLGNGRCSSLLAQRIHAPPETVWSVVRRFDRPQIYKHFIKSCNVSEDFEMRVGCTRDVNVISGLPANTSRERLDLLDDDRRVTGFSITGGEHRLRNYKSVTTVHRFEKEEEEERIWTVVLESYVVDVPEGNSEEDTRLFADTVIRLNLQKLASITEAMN; partner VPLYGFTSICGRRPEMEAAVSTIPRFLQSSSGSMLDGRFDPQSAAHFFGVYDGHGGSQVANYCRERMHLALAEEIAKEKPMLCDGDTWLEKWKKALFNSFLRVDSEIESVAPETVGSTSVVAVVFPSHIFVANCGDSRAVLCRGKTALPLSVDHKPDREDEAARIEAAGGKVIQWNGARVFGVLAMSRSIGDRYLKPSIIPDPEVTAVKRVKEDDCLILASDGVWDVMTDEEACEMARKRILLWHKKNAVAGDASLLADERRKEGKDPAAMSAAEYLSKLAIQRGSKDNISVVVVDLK
`A175D`: “relative binding score” 81.7%.
Under “relative binding score”, `F103Q` is recorded as -6.8%.
`G21A`: “relative binding score” 89.2%.
`D65V`: “relative binding score” 69.7%.
`I52Y` — result for “relative binding score”: 78.6%.
`P146F` — result for “relative binding score”: 6.27%.
`G71N` — result for “relative binding score”: 54.4%.
For `V70N`, “relative binding score” read 45.4%.
For `E130H`, “relative binding score” read 99.8%.
`T120E` — result for “relative binding score”: 5.3%.
`R90N` — result for “relative binding score”: 37.7%.
Under “relative binding score”, `H122W` is recorded as -14.8%.
Under “relative binding score”, `D75E` is recorded as 86.7%.
`T120A` — result for “relative binding score”: 7.44%.
For `V118N`, “relative binding score” read 65.3%.
`R132V`: “relative binding score” 92.7%.

Series 5 — target: CCNB3, cyclin fold, Cln2 fusion (human); method: yeast growth competition, sequencing; medium: yeast; notes: strong parent motif; baseline: not given; reading: higher = stronger binding
Parent: SCAPER docking peptide (human); SNARRSLNFGGST
For `N2V`, “normalised enrichment score” read 1.25.
`N8R`: “normalised enrichment score” 0.472.
`R5C`: “normalised enrichment score” 0.212.
`N8K`: “normalised enrichment score” 1.04.
Under “normalised enrichment score”, `S12I` is recorded as 1.43.
Under “normalised enrichment score”, `R4V` is recorded as 0.161.
`R5P`: “normalised enrichment score” 0.181.
For `S12M`, “normalised enrichment score” read 0.901.
Under “normalised enrichment score”, `R5Q` is recorded as 0.421.
`S12H`: “normalised enrichment score” 1.51.
`S12T`: “normalised enrichment score” 1.38.
`R5K` — result for “normalised enrichment score”: 0.818.
Under “normalised enrichment score”, `R5F` is recorded as 0.715.

Repeated from above (series 3):
For `ACTTAGAA`, the E-score was -0.0944.
`AACTCGGC` gave an E-score of 0.115.
For `AGTGGGTC`, the E-score was -0.0287.
`CAAAGCCG` has an E-score of 0.204.
`CCGGACAG` gave an E-score of 0.087.
With `CACATAAA` the E-score was -0.0256.
`AAGCGGTA` gave an E-score of 0.14.
The E-score of `AAAACTAT` is reported as -0.0343.
